Measurements pooled from the literature.
UniProt Q14164, sequence (whole entry, looked up): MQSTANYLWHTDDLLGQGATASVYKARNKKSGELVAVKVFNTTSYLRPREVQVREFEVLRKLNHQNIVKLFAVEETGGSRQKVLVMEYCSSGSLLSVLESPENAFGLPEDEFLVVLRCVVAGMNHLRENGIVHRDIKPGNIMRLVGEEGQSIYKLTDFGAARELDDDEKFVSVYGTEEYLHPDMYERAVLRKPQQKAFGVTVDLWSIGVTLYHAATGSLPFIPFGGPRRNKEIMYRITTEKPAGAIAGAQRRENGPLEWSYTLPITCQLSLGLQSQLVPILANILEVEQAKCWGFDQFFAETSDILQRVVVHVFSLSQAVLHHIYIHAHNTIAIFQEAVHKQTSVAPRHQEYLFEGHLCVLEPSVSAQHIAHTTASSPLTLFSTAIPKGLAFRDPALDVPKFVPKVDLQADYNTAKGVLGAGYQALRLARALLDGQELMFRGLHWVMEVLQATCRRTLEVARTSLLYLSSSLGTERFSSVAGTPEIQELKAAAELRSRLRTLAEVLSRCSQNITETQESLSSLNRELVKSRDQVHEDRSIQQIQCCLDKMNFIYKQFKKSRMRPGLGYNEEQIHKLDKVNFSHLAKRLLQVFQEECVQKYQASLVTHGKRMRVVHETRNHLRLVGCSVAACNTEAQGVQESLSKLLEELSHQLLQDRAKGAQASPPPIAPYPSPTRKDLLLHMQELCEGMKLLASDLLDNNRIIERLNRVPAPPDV
UniProt P00519, sequence (whole entry, unmodified, looked up): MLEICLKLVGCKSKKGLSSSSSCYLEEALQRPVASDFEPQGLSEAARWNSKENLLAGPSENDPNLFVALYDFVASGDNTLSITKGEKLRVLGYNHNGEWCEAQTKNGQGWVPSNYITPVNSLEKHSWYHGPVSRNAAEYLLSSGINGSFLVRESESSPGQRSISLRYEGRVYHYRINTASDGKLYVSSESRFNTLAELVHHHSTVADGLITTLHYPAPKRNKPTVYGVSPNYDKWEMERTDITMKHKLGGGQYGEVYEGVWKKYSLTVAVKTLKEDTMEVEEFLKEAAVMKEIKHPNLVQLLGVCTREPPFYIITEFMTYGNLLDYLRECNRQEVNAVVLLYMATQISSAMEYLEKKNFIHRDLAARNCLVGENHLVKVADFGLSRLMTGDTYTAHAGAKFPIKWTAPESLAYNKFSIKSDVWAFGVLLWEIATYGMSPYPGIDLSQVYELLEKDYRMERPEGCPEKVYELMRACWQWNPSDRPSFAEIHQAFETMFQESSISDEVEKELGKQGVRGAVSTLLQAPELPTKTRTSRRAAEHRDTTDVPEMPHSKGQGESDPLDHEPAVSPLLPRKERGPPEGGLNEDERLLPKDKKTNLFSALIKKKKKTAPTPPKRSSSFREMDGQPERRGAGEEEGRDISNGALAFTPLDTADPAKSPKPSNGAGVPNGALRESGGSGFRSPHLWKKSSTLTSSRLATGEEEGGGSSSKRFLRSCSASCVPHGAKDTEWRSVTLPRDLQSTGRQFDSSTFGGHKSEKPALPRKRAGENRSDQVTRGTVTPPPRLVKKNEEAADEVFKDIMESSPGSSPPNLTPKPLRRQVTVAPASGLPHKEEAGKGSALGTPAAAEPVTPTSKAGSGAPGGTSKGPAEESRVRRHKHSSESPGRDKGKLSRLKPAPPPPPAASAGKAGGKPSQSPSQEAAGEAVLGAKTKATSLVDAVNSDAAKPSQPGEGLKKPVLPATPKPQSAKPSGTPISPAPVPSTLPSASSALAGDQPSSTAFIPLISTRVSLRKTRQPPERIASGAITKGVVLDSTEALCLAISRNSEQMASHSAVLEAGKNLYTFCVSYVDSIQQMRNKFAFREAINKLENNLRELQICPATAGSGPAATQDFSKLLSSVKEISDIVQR
UniProt O75116, sequence (whole entry, looked up): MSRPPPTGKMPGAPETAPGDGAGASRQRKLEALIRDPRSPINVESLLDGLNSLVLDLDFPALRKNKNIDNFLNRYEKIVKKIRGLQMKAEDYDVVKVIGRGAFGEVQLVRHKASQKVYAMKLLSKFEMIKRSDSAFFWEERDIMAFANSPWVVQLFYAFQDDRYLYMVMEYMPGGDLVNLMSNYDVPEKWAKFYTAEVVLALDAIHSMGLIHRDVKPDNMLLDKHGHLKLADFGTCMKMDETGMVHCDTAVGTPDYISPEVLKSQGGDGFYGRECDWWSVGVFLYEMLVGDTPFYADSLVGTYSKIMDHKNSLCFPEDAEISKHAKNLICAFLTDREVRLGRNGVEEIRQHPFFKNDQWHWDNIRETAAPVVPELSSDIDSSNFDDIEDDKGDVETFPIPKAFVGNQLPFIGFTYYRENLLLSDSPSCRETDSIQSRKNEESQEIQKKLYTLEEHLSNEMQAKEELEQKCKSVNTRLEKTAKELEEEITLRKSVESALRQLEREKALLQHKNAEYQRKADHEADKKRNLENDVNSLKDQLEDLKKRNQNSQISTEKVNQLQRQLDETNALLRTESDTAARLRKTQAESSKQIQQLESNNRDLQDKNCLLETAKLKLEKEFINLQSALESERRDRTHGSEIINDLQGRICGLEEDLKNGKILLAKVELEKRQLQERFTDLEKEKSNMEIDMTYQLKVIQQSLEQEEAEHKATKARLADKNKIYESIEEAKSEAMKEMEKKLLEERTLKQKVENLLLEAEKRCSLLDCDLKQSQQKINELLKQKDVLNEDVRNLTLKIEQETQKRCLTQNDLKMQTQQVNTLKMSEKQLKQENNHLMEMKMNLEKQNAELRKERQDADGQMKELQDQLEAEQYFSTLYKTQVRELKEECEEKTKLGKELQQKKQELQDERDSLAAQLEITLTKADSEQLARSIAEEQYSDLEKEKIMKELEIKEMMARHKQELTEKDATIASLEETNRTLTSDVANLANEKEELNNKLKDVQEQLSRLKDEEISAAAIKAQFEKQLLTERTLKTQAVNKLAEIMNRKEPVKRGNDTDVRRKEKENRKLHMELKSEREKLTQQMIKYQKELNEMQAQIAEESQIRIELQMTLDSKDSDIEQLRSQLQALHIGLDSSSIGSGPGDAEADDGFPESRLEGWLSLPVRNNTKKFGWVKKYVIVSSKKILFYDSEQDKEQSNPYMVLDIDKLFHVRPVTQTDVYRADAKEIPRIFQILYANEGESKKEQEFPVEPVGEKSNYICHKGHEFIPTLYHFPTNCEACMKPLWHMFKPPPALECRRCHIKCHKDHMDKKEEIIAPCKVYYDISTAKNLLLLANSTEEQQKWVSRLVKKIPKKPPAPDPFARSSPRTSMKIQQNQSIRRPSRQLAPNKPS
UniProt P53667, sequence (whole entry, looked up): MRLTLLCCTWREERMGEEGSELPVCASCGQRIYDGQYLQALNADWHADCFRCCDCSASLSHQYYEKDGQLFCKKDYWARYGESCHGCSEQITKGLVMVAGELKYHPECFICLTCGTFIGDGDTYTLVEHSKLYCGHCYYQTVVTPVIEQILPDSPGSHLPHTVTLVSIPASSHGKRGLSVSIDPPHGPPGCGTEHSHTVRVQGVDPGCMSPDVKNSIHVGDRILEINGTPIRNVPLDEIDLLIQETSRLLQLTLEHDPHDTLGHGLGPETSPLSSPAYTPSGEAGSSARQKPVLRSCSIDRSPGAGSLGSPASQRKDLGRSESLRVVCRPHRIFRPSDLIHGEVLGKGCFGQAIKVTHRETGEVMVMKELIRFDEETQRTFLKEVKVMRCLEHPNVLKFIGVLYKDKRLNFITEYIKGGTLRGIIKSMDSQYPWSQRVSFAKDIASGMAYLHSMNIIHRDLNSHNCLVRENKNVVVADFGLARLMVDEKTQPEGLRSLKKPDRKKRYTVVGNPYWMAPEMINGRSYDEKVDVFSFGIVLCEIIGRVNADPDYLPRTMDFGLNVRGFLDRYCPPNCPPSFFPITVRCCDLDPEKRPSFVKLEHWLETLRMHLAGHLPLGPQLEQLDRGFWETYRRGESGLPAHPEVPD
UniProt P31749, sequence (whole entry, looked up): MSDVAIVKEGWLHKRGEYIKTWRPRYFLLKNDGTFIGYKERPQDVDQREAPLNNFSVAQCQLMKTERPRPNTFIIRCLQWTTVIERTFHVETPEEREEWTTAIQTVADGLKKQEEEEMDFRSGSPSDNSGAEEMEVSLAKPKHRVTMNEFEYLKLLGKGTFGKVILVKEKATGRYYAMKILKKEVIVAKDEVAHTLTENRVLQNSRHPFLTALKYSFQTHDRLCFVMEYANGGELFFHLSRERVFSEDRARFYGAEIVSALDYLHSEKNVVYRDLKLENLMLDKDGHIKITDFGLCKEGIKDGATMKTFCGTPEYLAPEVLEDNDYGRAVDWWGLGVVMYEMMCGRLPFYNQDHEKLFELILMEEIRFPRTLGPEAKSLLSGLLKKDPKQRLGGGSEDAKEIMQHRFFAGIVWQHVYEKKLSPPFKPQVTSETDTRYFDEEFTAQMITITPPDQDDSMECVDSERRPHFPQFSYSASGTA

SMILES = C=C(F)C(=O)N1CCN(c2nc(OC[C@@H]3CCCN3C)nc3c2CCN(c2cccc4cccc(Cl)c24)C3)C[C@@H]1CC#N; target or system = NCI-H1373; assay = cell growth or viability, ATP luminescence; quantity = IC50; result = 1.23 µM
SMILES = COc1cccc2c1C(=O)c1c(O)c3c(c(O)c1C2=O)C[C@@](O)(C(=O)CO)C[C@@H]3O[C@H]1C[C@H](N)[C@H](O)[C@H](C)O1; target or system = HeLa; assay = cell growth or viability, CCK-8; conditions = 72 h; quantity = IC50; result = 0.66 µM
SMILES = Cc1cc(NS(=O)(=O)c2ccc(N=NN(C)O)cc2)no1; assay = ABTS scavenging; conditions = 60 µg/mL; quantity = inhibition; result = 27.8%
SMILES = OCc1ccc(-c2nn(Cc3ccccc3F)c3ccccc23)o1; target or system = RBE; assay = cell growth or viability, ATP luminescence; quantity = IC50; result = 1.2 µM
SMILES = COc1cc(Nc2nccc(-c3cnn4nc(OC)ccc34)n2)cc(C(F)(F)F)c1; target or system = OCI-AML-5; assay = cell growth or viability, ATP luminescence; quantity = IC50; result = 0.86 µM
SMILES = COc1ccc(COc2cc3oc(=O)c4cc(C(C)O)ccc4c3cc2OC)cc1 (stereo not drawn); target or system = HD-MB03; assay = cell growth or viability; conditions = 7 days; quantity = IC50; result = > 10 µM
SMILES = CCc1c(C)c2ccc(OCC=Cc3ccccc3)c(C)c2oc1=O; target or system = PC-3; assay = cell growth or viability, MTT; quantity = IC50; result = 255 µM
SMILES = OCc1ccc(-c2nn(CCc3ccccc3)c3ccccc23)o1; target or system = RBE; assay = cell growth or viability, ATP luminescence; quantity = IC50; result = 5.89 µM
SMILES = CNc1ncc2c(/C=C/C(=O)N3CCC(OC)CC3)nn(Cc3cccc(C(F)(F)F)c3)c2n1; target or system = Inhibitor of nuclear factor kappa-B kinase subunit epsilon (IKBKE, Homo sapiens, UniProt Q14164); assay = enzyme activity, inhibitor, radiometric; conditions = 1 µM; quantity = remaining activity; result = 98%
SMILES = CS(=O)(=O)c1ccc(C(=O)Nc2ccc(Cl)c(-c3ccccn3)c2)c(Cl)c1; target or system = MB002; assay = cell growth or viability; conditions = 7 days; quantity = IC50; result = > 10 µM
SMILES = COc1cc2c3c(n(CCCN4CCOCC4)c(=O)c2cc1OC)-c1nc2c(cc1C3=O)OCO2; target or system = TC-71; assay = cell growth or viability, MTS; conditions = 72 h; quantity = IC50; result = 0.756 µM
SMILES = c1ccc2c(c1)ncn2Cn1cncn1; target or system = SH-SY5Y; assay = cell growth or viability, MTT; conditions = 24 h; quantity = IC50; result = 32.1 µM
SMILES = Cc1[nH]c(C)c(-c2ccc(OCc3cc(C(F)(F)F)cc(C(F)(F)F)c3)nc2)c(=O)c1Cl; target or system = HEK293; assay = cell growth or viability; quantity = IC50; result = > 10 µM
SMILES = Cc1c(Cc2ccccc2)c(=O)oc2c(C)c(OCC(=O)NN=Cc3ccc(Cl)cc3)ccc12; target or system = PC-3; assay = cell growth or viability, MTT; quantity = IC50; result = 120 µM
SMILES = Cc1nc(Nc2ncc(C(=O)Nc3c(C)cccc3Cl)s2)cc(N2CC[C@H](O)C2)n1; target or system = RS4-11; assay = cell growth or viability, ATP luminescence; conditions = 72 h; quantity = IC50; result = > 10 µM
SMILES = CCCCC(=O)Nc1ccc(-c2ccc3ncn(CCC)c(=O)c3c2)cn1; target or system = Tyrosine-protein kinase ABL1, phosphorylated (ABL1, Homo sapiens, UniProt P00519, M351T); assay = binding, competition with immobilised ligand; conditions = 0.5 µM; quantity = remaining binding; result = 97%
SMILES = CN(Cc1ccc(C2(C(F)(F)F)CC2)cc1)Cc1cccc2ccccc12; target or system = Trichophyton rubrum; assay = microbial growth, disc diffusion; system = ATCC28188; conditions = 0.512 µg/mL, 6 days; quantity = inhibition zone; result = ≥ 55 mm
SMILES = Cc1cccc(N=C2C(=O)N(Cc3ccccc3)c3ccccc32)c1; target or system = L02; assay = cell growth or viability, MTT; conditions = 48 h; quantity = IC50; result = 31.3 µM
SMILES = CC(C)n1nc(-c2ccc3oc(N)nc3c2)c2c(N)ncnc21; target or system = MB002; assay = cell growth or viability; conditions = 7 days; quantity = IC50; result = 0.013 µM
SMILES = C=CCNC(=S)NNC(=O)COc1ccc2c(C)c(CC)c(=O)oc2c1C; target or system = PC-3; assay = cell growth or viability, MTT; quantity = IC50; result = 246 µM
SMILES = Cc1cccc2nc(-c3ccc(-c4cccc(CNCCCN5CCCC5=O)c4)cc3)[nH]c12; target or system = HEK293; assay = cell growth or viability; quantity = IC50; result = > 10 µM
SMILES = COc1ccc2c(c1)[C@]1(C[C@H]1c1ccc3c(/C=C/c4ccc(CN5C[C@@H](C)O[C@@H](C)C5)cc4)n[nH]c3c1)C(=O)N2; target or system = HD-MB03; assay = cell growth or viability; conditions = 7 days; quantity = IC50; result = 0.00613 µM
SMILES = CCCCN(C)CC#Cc1ccc2[nH]c(C)c(Cl)c(=O)c2c1; target or system = HEK293; assay = cell growth or viability; quantity = IC50; result = > 10 µM
SMILES = CC(=O)N1CCC(Nc2cc(C(=O)NC[C@H](O)CN3CCc4ccccc4C3)ncn2)CC1; target or system = HD-MB03; assay = cell growth or viability; conditions = 7 days; quantity = IC50; result = > 10 µM
SMILES = OCc1ccc(-c2nn(Cc3cccc(F)c3)c3ccccc23)o1; target or system = RBE; assay = cell growth or viability, ATP luminescence; quantity = IC50; result = 1.2 µM
SMILES = C=CC(=O)N1CCC(COCC(=O)N2CCN(c3nc(-c4cnc(N)nc4C(F)F)nc(N4CCOC[C@@H]4C)n3)CC2)CC1; target or system = RAC-alpha serine/threonine-protein kinase (AKT1, Homo sapiens, UniProt P31749); assay = binding, competition with immobilised ligand; conditions = 1 µM; quantity = remaining binding; result = 100%
SMILES = CO[C@H]1C(=O)[C@]2(C)[C@@H](OC)C[C@H]3OC[C@@]3(OC(C)=O)[C@H]2[C@H](OC(=O)c2ccccc2)[C@]2(O)C[C@H](OC(=O)[C@H](O)[C@@H](NC(=O)OC(C)(C)C)c3ccccc3)C(C)=C1C2(C)C; target or system = MB002; assay = cell growth or viability; conditions = 7 days; quantity = IC50; result = 0.00413 µM
SMILES = COc1cccc(Cn2nc(-c3ccc(CN)o3)c3ccccc32)c1; target or system = RBE; assay = cell growth or viability, ATP luminescence; quantity = IC50; result = 5.01 µM
SMILES = Cc1cc([C@@H](C)Nc2ccccc2C(=O)O)c2nc(N3CCC(F)(F)CC3)c(C#N)c(=O)n2c1; target or system = Rho-associated protein kinase 2 (ROCK2, Homo sapiens, UniProt O75116); assay = binding, competition with immobilised ligand; conditions = 10 µM; quantity = remaining binding; result = 100%
SMILES = OCc1ccc(-c2nn(Cc3cncnc3)c3ccccc23)o1; target or system = RBE; assay = cell growth or viability, ATP luminescence; quantity = IC50; result = 1.05 µM
SMILES = CCOc1ccc2c(C)c(CC)c(=O)oc2c1C; target or system = PC-3; assay = cell growth or viability, MTT; quantity = IC50; result = 512 µM
SMILES = COC(=O)CN=c1scc(-c2ccccc2)n1-c1ccc(OC)cc1; target or system = Panc 02.03; assay = cell growth or viability, MTT; conditions = 72 h; quantity = IC50; result = 26.1 µM
SMILES = OCc1ccc(-c2nn(Cc3ccccc3)c3c2CCCC3)o1; target or system = RBE; assay = cell growth or viability, ATP luminescence; quantity = IC50; result = 1.51 µM
SMILES = Cn1nnc2c(C(N)=O)ncn2c1=O; target or system = HD-MB03; assay = cell growth or viability; conditions = 7 days; quantity = IC50; result = > 10 µM
SMILES = COC(=O)CN=c1scc(-c2ccccc2)n1-c1ccc(Cl)cc1; target or system = SiHa; assay = cell growth or viability, MTT; conditions = 72 h; quantity = IC50; result = 1.66 µM
SMILES = CCCCN1CC[C@@H](CCC(O)c2cc(OCCC)nc3ccc(OC)cc23)[C@@H](CC)C1 (stereo partly drawn); target or system = HEK293; assay = cell growth or viability; quantity = IC50; result = > 10 µM
SMILES = COc1cc2c3c(n(CCCNC(C)C)c(=O)c2cc1OC)-c1nc2c(cc1C3=O)OCO2; target or system = RPMI-8226; assay = cell growth or viability, MTS; conditions = 72 h; quantity = IC50; result = 0.234 µM
SMILES = O=C1C(=Nc2ccc(Cl)cc2)c2ccccc2N1Cc1ccc([N+](=O)[O-])cc1; target or system = L02; assay = cell growth or viability, MTT; conditions = 48 h; quantity = IC50; result = 19.6 µM
SMILES = Cc1cccc(N(O)N=Nc2ccc(S(=O)(=O)Nc3cc(C)on3)cc2)c1; assay = ABTS scavenging; conditions = 60 µg/mL; quantity = inhibition; result = 45.9%
SMILES = OCc1ccc(-c2nn(Cc3ccccn3)c3cccnc23)o1; target or system = RBE; assay = cell growth or viability, ATP luminescence; quantity = IC50; result = 2.24 µM
SMILES = COC(=O)CN=c1scc(-c2ccccc2)n1-c1ccc(C)cc1; target or system = HeLa; assay = cell growth or viability, MTT; conditions = 72 h; quantity = IC50; result = 8.66 µM
SMILES = Cn1cnc2c1c(=O)n(CC(=O)Nc1c(Cl)cccc1Cl)c(=O)n2C; target or system = Vero; assay = cell growth or viability, MTT; quantity = IC50; result = 364 µg/mL
SMILES = COc1cc(-c2cncc3c2CN(C)Cc2cc(N4CCNCC4)ccc2-3)cc(OC)c1OC; target or system = LIM domain kinase 1 (LIMK1, Homo sapiens, UniProt P53667); assay = enzyme activity, inhibitor; conditions = 1 µM; quantity = remaining activity; result = 91%
SMILES = Cc1[nH]c(C)c(-c2ccc(-c3ccccc3Cl)nc2)c(=O)c1Cl; target or system = HEK293; assay = cell growth or viability; quantity = IC50; result = > 10 µM
SMILES = CC(=NNC(=O)COc1ccc2c(C)c(Cc3ccccc3)c(=O)oc2c1C)c1ccc(Br)cc1; target or system = PC-3; assay = cell growth or viability, MTT; quantity = IC50; result = 3.58 µM
SMILES = Cc1[nH]c(C)c(-c2ccc(-c3ccc(C(F)(F)F)cc3C(F)(F)F)nc2)c(=O)c1Br; target or system = HEK293; assay = cell growth or viability; quantity = IC50; result = > 10 µM
SMILES = COc1cc2c3c(n(CCCn4ccnc4)c(=O)c2cc1OC)-c1nc2c(cc1C3=O)OCO2; target or system = TC-71; assay = cell growth or viability, MTS; conditions = 72 h; quantity = IC50; result = 0.199 µM
SMILES = C=Cc1cc(NC(=O)N2CCc3cc(OC)c(C(F)(F)F)cc32)cc(-c2cccnc2)c1; target or system = HEK293; assay = cell growth or viability; quantity = IC50; result = > 10 µM
SMILES = COc1cnccc1Cn1nc(-c2ccc(CO)o2)c2ccccc21; target or system = RBE; assay = cell growth or viability, ATP luminescence; quantity = IC50; result = 0.209 µM
SMILES = Cc1cc(=O)c(-c2ccc(OCCSc3ccc(C(F)(F)F)cn3)cc2)c(C)[nH]1; target or system = HEK293; assay = cell growth or viability; quantity = IC50; result = > 10 µM
SMILES = CC1(C)CCC(CN2CCN(c3ccc(C(=O)NS(=O)(=O)c4ccc(NCC5CCOCC5)c([N+](=O)[O-])c4)c(Oc4cnc5[nH]ccc5c4)c3)CC2)=C(c2ccc(Cl)cc2)C1; target or system = HD-MB03; assay = cell growth or viability; conditions = 7 days; quantity = IC50; result = > 10 µM
